Experimental data collected from several papers.
“And” joins repeats or separate records; there may be more than shown. ± gives the spread as reported. In brackets after ≈: the same amount, converted by molar mass.

Structure (SMILES)	test	system	setting	scale	quantity	result
CC(C)(C(=O)N1CCOc2c(C#N)cncc2C1)C(F)F	item: disturbance in attention	human	oral, 15 mg twice daily, 14 days, multiple ascending dose		subjects with adverse event	0%
Cc1cc(NC2CCN(C(=O)OC3CCN(C(=O)/C=C/CN(C)C)C3)CC2)n2ncc(C(C)C)c2n1 (stereo not drawn)	CTCAE v4.0, item: Anemia	patients with advanced solid tumours	oral, dose not given, TIW, grade 3 or higher		patients with TEAE	9%
CCN1/C(=C/C(C)=O)Sc2ccc(F)cc21		cynomolgus monkey	oral, 10 mg/kg, 24 h post-dose		systolic blood pressure	116 ± 4 mmHg
CC(C)CCC[C@@H](C)[C@H]1CC[C@H]2[C@@H]3C(O)CC4=CC(=O)CC[C@]4(C)[C@H]3CC[C@]12C (stereo partly drawn)		human, plasma	endogenous control diurnal	reference: daily mean concentration	relative peak deviation	58.7 ± 11.1%
O=C(N[C@H](Cc1c[nH]c2ccccc12)C(=O)Nc1ccncc1)c1ccc(N2CCN(c3ccc(F)c(F)c3)CC2)cc1F		Swiss Webster mouse, female, muscle	oral, 50 mg/kg, 8 h, 20% HPβCD vehicle		concentration	60 nM
Cl.[2H]C([2H])([2H])CC(=O)c1cnc(NC(=O)C2CC2)cc1Nc1cccc(-c2ncn(C([2H])([2H])[2H])n2)c1OC		human, fasted, multiple dose	oral, 20 mg twice daily, tablet, day 14, geometric mean		half-life	9.61 h
CCN1CCN(Cc2ccc(NC(=O)c3ccc(C)c(NC(=O)c4cncc(-c5cccs5)c4)c3)cc2C(F)(F)F)CC1		C57BL/6 mice, epithelial lining fluid	intraperitoneal, 15 mg/kg		dose-normalised AUC	0.33 kg·µg·h/mL/mg
Cn1cc(-c2cn3nccc3c(-c3cnn([C@]4(CC#N)C[C@@H](C#N)C4)c3)n2)cn1		healthy humans fed, plasma	30 mg once daily, day 10, geometric mean		average concentration	31.4 ng/mL
COc1cccc(-c2n[nH]c(SCc3ccccn3)n2)c1OC		Sprague-Dawley rats, male	diet, 100 mg/kg/day, 90-day subchronic study		liver weight	16.6 g
CCN1CCN(C(=O)N[C@@H](C(=O)N[C@@H]2C(=O)N3[C@@H]2SC(C)(C)[C@@H]3C(=O)O)c2ccccc2)C(=O)C1=O	LC-MS/MS	human patients, plasma	dose not given, therapeutic drug monitoring, median		total plasma concentration	13 mg/L
O=C(O)CCCOc1ccc(F)cc1-c1cc(-c2ccccc2C(F)(F)F)n(-c2ccccc2)n1		Crl:CD(SD) rat, male, serum	iv, 25 µg/kg, 14 days		chloride	106.3 ± 0.9 mEq/L
CCOCC(=O)N1CCC[C@H](C(=O)NCc2nc(-c3ccc(C#N)nc3)cs2)C1		Sprague-Dawley rat, male, urine	intravenous, 1 mg/kg, 24 h	reference: dose	urinary excretion	4.7%
Cc1ccc(C)c(OCCCC(C)(C)C(=O)O)c1	item: AUC0-∞	human subjects, plasma	oral, dose not given, with: lopinavir-ritonavir	reference: with over without lopinavir-ritonavir	geometric mean ratio	0.59
O=C1COCCN1c1ccc(CO[C@@H]2COc3nc([N+](=O)[O-])cn3C2)cn1		aqueous buffer	pH 7.4		aqueous solubility	28.4 µg/mL (≈ 75.7 µM)
CCn1cc(C(=O)N2CCOCC2)c(=O)c2cc(NC3Cc4ccccc4C3)cnc21		human, fasted	oral suspension, 50 mg single dose, median		Tmax	1.5 h
Cc1ccc(Sc2ccccc2N2CCNCC2)c(C)c1	item: eosinophil count increased	healthy adult men	oral, 20 mg daily, 12 days		participants with TEAE	0%
CN(C(=O)n1cnc(-c2ccc[n+]([O-])c2)c1)[C@H]1CC[C@H](O)CC1		Wistar rat, midbrain	oral, 10 mg/kg of BIA 10-2474, 4 h, single dose		concentration	14.1 ± 0.4 ng/g
C[C@@H]1CCO[C@H]2Cn3cc(C(=O)NCc4ccc(F)cc4F)c(=O)c(O)c3C(=O)N12	population PK, post-hoc	children, 25 to <30 kg, plasma	oral, 50 mg film-coated tablet, steady state, geometric mean		AUC(0-24)	65000 ng·h/mL
O=C(O)CCC(=O)O.[2H]C([2H])([2H])Oc1cc(C)c2[nH]ccc2c1CN1CC[C@@H](C2CC2)C[C@H]1c1ccc(C(=O)O)cc1	multiple ascending dose	healthy Chinese subjects	100 mg twice daily		subjects with allergic dermatitis TEAE	0%
COc1ccc2c(=O)n(C)c(-c3ccccc3)nc2c1		male Sprague-Dawley rat, small intestine	oral, 30 mg/kg, 0.5 h		tissue concentration	300000 ng/g
CC(C)[C@H](C(=O)Nc1ccc(C(=O)NO)cc1)c1ccccc1		whole blood	1000 ng/mL, 1 h, 4 °C, stability on ice		measured concentration	1120 ng/mL
COc1cccc(OC)c1-c1cc(C(=O)NC2(C(=O)O)C3CC4CC(C3)CC2C4)nn1-c1ccc(C(=O)N(C)CCCN(C)CCCN(C)C(=O)CN2CCN(CC(=O)[O-])CCN(CC(=O)[O-])CCN(CC(=O)[O-])CC2)cc1C(C)C.[177Lu+3] (stereo not drawn)		mouse HT-29 xenograft	4 h, biodistribution	reference: tumour over spleen	tumour-to-spleen ratio	7.35
Cc1cccc(CNC(=O)c2cn(CCNC(=O)c3ccccc3Sc3c([N+](=O)[O-])ncn3C)c3cc4c(cc3c2=O)OCO4)n1		Beagle dog, whole blood	1 µM, 0.25 h		remaining compound	92.2%
Cc1cc(-c2nnc(N)nc2-c2ccc(F)cc2)cc(Cl)n1	item: Hyperthyroidism	IO-naive colorectal cancer patients	oral, dose not given, treatment-related, grade ≥3		patients with immune-mediated AE	0%
CNCCOC12CC3(C)CC(C)(CC(Cn4ncc(-c5ccc(N6CCc7cccc(C(=O)Nc8nc9ccccc9s8)c7C6)nc5C(=O)O)c4C)(C3)C1)C2		beagle dog, male, anaesthetised	intravenous bolus, 0.03 mg/kg, 45 min	reference: baseline	heart rate change	-1%
O=C(COc1ccc(Cl)cc1)NC12CC(c3nnc([C@H]4C[C@@H](OC(F)(F)F)C4)o3)(C1)C2	item: Hypogeusia	human	100 mg once daily, 28 (unit not given)		adverse event incidence	10%
Cc1cc(-c2nccc3c2ccn3CC(=O)Nc2ccc(-c3cnccn3)cn2)ccn1		human	20 mg once daily, multiple ascending dose		subjects with Erythema adverse event	0%

Structure (SMILES)	test	system	setting	scale	quantity	result
COc1ncc(-c2nc3c(n2C(C)C)[C@H](c2ccc(Cl)cc2)N(c2cc(Cl)cn(C)c2=O)C3=O)c(OC)n1		human patients, plasma	oral, 1 mg, cycle 1 day 1, low-dose		geometric mean Cmax	7.9 ng/mL
NC(CO)(CO)CCc1ccc(Sc2cccc(OCc3ccccc3)c2)cc1Cl		human, supine	oral, 3 mg, 0 to 24 h, with: cyclosporin 100 mg		pulse rate AUEC, geometric mean	1300 h×bpm
CN1CC[C@@H](NC(=O)Nc2ccc(C#N)cc2)C[C@@H]1c1nc2ccccc2[nH]1	linear mixed-effects model	healthy volunteers	oral, unit not given	reference: placebo	ΔΔQTcF intercept	1.79
CCc1cc(C(=O)NC)c2nccc(N3CCc4c(cc(Cn5ccnc5)cc4-c4cn(C)nc4C(F)(F)F)C3=O)c2c1		Sprague Dawley rats	oral, 100 mg/kg twice daily, 7 days	reference: vehicle	serum AST change	13%
Cc1ccc([C@@H]2O[C@H](CO)[C@@H](O)[C@H](O)[C@H]2O)cc1Cc1ccc(-c2ccc(F)cc2)s1		Japanese type 2 diabetes patients	200 mg, day 5, 24 h urine collection	reference: baseline	urinary calcium excretion change	-30.9 mg
O=C(Nc1nc2cccc(-c3ccc(CN4CCS(=O)(=O)CC4)cc3)n2n1)C1CC1	item: blood amylase increased	rheumatoid arthritis patients	oral, 200 mg once daily, 4 weeks, any relatedness		treatment-emergent adverse events	0%
C=CC(=O)NC1CCN(c2ncc3ncnc(Nc4ccc(Oc5ccc6c(c5)ncn6C)c(C)c4)c3n2)CC1	item: total radioactivity	healthy male human, whole blood and plasma	oral, 60 mg, 168 h, geometric mean		blood-to-plasma ratio	3.31
C[C@@H](Nc1cc(F)cc(F)c1)c1cc(C(=O)N(C)C)cc2c(=O)cc(N3CCOCC3)oc12	item: Rash	advanced solid tumour patients	oral, dose not given, dose expansion		related serious adverse events	0%
O=C(c1cccnc1-c1ccncc1)N1CCC(O)(Cc2ccccc2)CC1		healthy Japanese adults, plasma	oral, 600 mg single dose		elimination rate constant	4.44e-05 s⁻¹
O=C1CC[C@H](N2Cc3cc(N4CCN(CC5CCN(c6ccc([C@@H]7c8ccc(O)cc8CC[C@@H]7c7ccccc7)cc6)CC5)CC4)ccc3C2=O)C(=O)N1		human	oral, 200 mg, with: dabigatran etexilate 75 mg		participants with TEAE rhinorrhoea	4.2%
O=C1CC[C@H](N2Cc3cc(N4CCN(CC5CCN(c6ccc([C@@H]7c8ccc(O)cc8CC[C@@H]7c7ccccc7)cc6)CC5)CC4)ccc3C2=O)C(=O)N1	rapid equilibrium dialysis	human hepatocytes	2.5 µM, 6 h		unbound fraction in hepatocytes	0.12
COc1cc(N2CCC3(CCN(C)CC3)CC2)ccc1Nc1ncc(Cl)c(Nc2ccccc2P(C)(C)=O)n1	population PK model	human	oral, final model		V2/F	295 L
CNC(=O)c1ccc(-c2cnc3ncc(Cc4ccc5ncccc5c4)n3n2)cc1F		Japanese patients	oral, 400 mg, grade 3/4		blood bilirubin increased dose reduction/interruption	0%
Oc1ccc(/C=C/c2cc(O)cc(O)c2)cc1		rat, azoxymethane-injected, blood at sacrifice	100 mg/kg		chloride	104 mEq/L and 100 mEq/L and 101 mEq/L
COc1ccc([C@@H](O)c2cc(-c3ncnc4cc(N5CCOCC5)ccc34)c(F)cc2Cl)nn1		locally advanced rectal cancer patients	50 mg, with: capecitabine and radiotherapy		drug-related proctitis incidence	100%
Cc1ccc(C)c(OCCCC(C)(C)C(=O)O)c1		human, plasma	oral, dose not given, day 14 predose, geometric mean		trough plasma concentration	1680 ng/mL
N#C[C@@]1(c2ccc3c(N)ncnn23)O[C@H](CO)[C@@H](O)[C@H]1O	plasma protein binding	rat plasma	10 µM		unbound fraction	0.918
O=C(O)CCCCCCCCCCCCC(=O)O		human, plasma	endogenous baseline diurnal	reference: daily mean concentration	relative peak deviation	69.4 ± 8.1%
C[C@@H](NC(=O)N1C(=O)[C@H](Cc2ccnc(N)c2)[C@H]1C(=O)O)C1CCCCC1	UPLC-MS/MS	healthy adult Chinese volunteers, plasma	continuous intravenous infusion, 2.25 mg/kg/h, day 6 of 5-day infusion, mean		elimination rate constant	0.000139 s⁻¹
CCOc1c([C@H](C)n2nc(C)c3c(N)ncnc32)cc(Cl)c(F)c1[C@@H]1CNC(=O)C1	item: QRS >100 to ≤110 ms	previously treated B-cell malignancy	oral, 45 mg once daily, baseline below thresholds		ECG observations	0%
CNCc1ccc(-c2[nH]c3cc(F)cc4c3c2CCNC4=O)cc1		human patients	oral, 600 mg twice daily, grade 4		diarrhoea incidence	0%
Cn1cc(Nc2nccc(-c3ccc4c(c3)CN(C3COC3)CC[C@H]4NC(=O)c3cn(C(C)(C)C)nn3)n2)cn1		human, whole blood	50 mg twice daily, day 7	reference: pre-dose baseline	transitional B cell count change	1040%
[18F]c1ccc(-c2ccc3c(c2)[nH]c2ccncc23)cn1	ex vivo biodistribution	B6SJL mouse, normal, kidneys	intravenous, 30 min		SUV	4.75 ± 1.43
O=C(Cc1ccc2ccccc2c1)Nc1cc(C2CCC2)[nH]n1		mouse plasma	0.5 ng/mL, -80 °C, freeze-thaw stability, with: 3 freeze-thaw cycles		measured mean concentration	0.52 ± 0.03 ng/mL
CCCCCCOC(=O)N=C(N)c1ccc(N(Cc2nc3cc(C(=O)N(CCC(=O)OCC)c4ccccn4)ccc3n2C)N=O)cc1		cell culture medium			precipitation concentration	100 to 1000 µM
N#Cc1ccc2c(c1)[C@H]1CCCN(C(=O)c3ccc4[nH]cnc4c3)[C@H]1C2		human	360 mg, day 15		maximum ACTH level	10.3 pmol/L
CC(C)Oc1c(NC(=O)c2ccc(NC(=O)[C@H](CC(N)=O)NC(=O)c3ccc(/N=N/c4ccccc4)cc3)cc2)ccc(C(=O)N/N=C/c2ccc(C(=O)O)s2)c1O	absorbance	DMSO	45 °C, PSS to ground state relaxation		thermal half-life	3 h
